# Measurements from different studies.
# Compare with care: the assays were run in different laboratories. Several values in a cell are separate wells, animals, samples, runs or records. Numbers after ± are the reported error.
# Read-out: enzyme activity
# GBA1 R534H: Lysosomal acid glucosylceramidase (GBA1, Homo sapiens, UniProt P04062, R534H)
# Sequence of UniProt P04062 (whole entry, unmodified, looked up): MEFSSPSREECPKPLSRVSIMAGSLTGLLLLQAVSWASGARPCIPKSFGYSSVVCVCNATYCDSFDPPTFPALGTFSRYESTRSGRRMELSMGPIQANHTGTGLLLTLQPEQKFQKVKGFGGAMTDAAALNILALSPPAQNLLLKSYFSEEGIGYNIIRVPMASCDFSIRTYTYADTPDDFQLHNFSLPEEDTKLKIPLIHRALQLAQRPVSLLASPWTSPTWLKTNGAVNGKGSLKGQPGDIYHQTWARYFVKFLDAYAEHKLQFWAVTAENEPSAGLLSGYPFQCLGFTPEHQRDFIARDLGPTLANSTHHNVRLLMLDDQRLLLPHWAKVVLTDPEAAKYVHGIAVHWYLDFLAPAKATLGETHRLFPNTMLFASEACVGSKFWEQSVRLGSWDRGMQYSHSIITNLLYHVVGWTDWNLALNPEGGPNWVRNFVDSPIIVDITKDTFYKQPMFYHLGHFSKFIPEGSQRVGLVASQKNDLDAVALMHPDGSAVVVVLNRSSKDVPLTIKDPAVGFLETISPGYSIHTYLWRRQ
# GBA1: Lysosomal acid glucosylceramidase (GBA1, Homo sapiens, UniProt P04062)
SMILES,target,assay,setting,endpoint,result
OC[C@@H]1[C@@H](O)[C@H](O)[C@@H](O)[C@H]2O[C@@H]12,GBA1 R534H,irreversible inhibitor,"pH 5.2, 37 °C, added: 2,4-DNP-β-Glc",Ki,> 500 µM
OC[C@H]1c2[nH]cnc2[C@H](O)[C@@H](O)[C@@H]1O,GBA1 R534H,inhibitor,pH 6.8,Ki,~3.9 µM and 3.9 µM
CC(C)COCCCCCN1C[C@H](O)[C@@H](O)[C@H](O)[C@H]1CO,GBA1 R534H,inhibitor,"recombinant Cerezyme, added: 4MU-β-D-glucopyranoside",Ki,10.8 µM
CCCCOP(=O)(CCCC)O[C@@H]1O[C@H](CO)[C@@H](O)[C@H](O)[C@H]1F (mixture of isomers),GBA1,irreversible inhibitor,"pH 5.5, 37 °C, added: 2,4-dinitrophenyl beta-D-glucopyranoside",Ki,264 µM
CC(C)(C)COCCCCCN1C[C@H](O)[C@@H](O)[C@H](O)[C@@H]1CO,GBA1 R534H,inhibitor,"recombinant Cerezyme, added: 4MU-β-D-glucopyranoside",Ki,120 µM
COc1ccc(C2=[N+]3C(=C(CCCCc4cn(C[C@@H]5[C@@H](O)[C@H](O)[C@@H](O)[C@@H]6O[C@H]56)nn4)c4ccc(-c5ccc(OC)cc5)n4[B-]3(F)F)C=C2)cc1,GBA1 R534H,inhibitor,"pH 5.2, added: 4MU-β-D-Glc substrate",IC50,0.00194 ± 8e-05 µM
CCCCCCCCOP(=O)(Cc1ccccc1)O[C@@H]1O[C@H](CO)[C@@H](O)[C@H](O)[C@H]1F (stereo partly shown),GBA1,irreversible inhibitor,"pH 5.5, 37 °C, added: 2,4-dinitrophenyl beta-D-glucopyranoside",Ki,101 µM
CC(OCCCCCN1C[C@H](O)[C@@H](O)[C@H](O)[C@H]1CO)C(C)(C)C (stereo partly shown),GBA1 R534H,inhibitor,"recombinant Cerezyme, added: 4MU-β-D-glucopyranoside",Ki,7.3 µM
CCCCCCCCNP(=O)(OCCCCCCCC)O[C@@H]1O[C@H](CO)[C@@H](O)[C@H](O)[C@H]1F (mixture of isomers),GBA1,irreversible inhibitor,"pH 5.5, 37 °C, added: 2,4-dinitrophenyl beta-D-glucopyranoside",Ki,188 µM
OC[C@@H]1[C@@H](O)[C@H](O)[C@@H](O)CN1CCCCCOCC1CCCO1 (stereo partly shown),GBA1 R534H,inhibitor,"recombinant Cerezyme, added: 4MU-β-D-glucopyranoside",Ki,122 µM
CCCCc1nc2c([nH]1)[C@H](O)[C@@H](O)[C@H](O)[C@H]2O,GBA1 R534H,inhibitor,pH 6.8,Ki,0.079 µM
CC1=CC(C)=[N+]2C1=C(CCCCc1cn(C[C@H]3O[C@@H](O/C(=N\c4ccccc4)C(F)(F)F)[C@H](F)[C@@H](O)[C@@H]3O)nn1)c1c(C)cc(C)n1[B-]2(F)F,GBA1 R534H,inhibitor,"pH 5.2, added: 4MU-β-D-Glc substrate",IC50,5.46 ± 0.13 µM
CCCCCCCCNP(=O)(NCCCCCCCC)O[C@@H]1O[C@H](CO)[C@@H](O)[C@H](O)[C@H]1F,GBA1,irreversible inhibitor,"pH 5.5, 37 °C, added: 2,4-dinitrophenyl beta-D-glucopyranoside",Ki,8.2 µM

# Some of these lines once more:
SMILES,target,assay,setting,endpoint,result
CC(OCCCCCN1C[C@H](O)[C@@H](O)[C@H](O)[C@H]1CO)C(C)(C)C (stereo partly shown),GBA1 R534H,inhibitor,"recombinant Cerezyme, added: 4MU-β-D-glucopyranoside",Ki,7.3 µM
